Assay results collected from several papers.
A part holds a random share of what one study measured. Positions count from the first letter of the parent shown.

Series 1
Target: Sal-like protein 4, full length isoform B (SALL4, Homo sapiens, UniProt Q9UJQ4-2, residues 1-616)
Method: universal PBM
Molecule type: double-stranded DNA, one strand shown
Medium: in vitro
Concentration: not given
Setting: 8-mer, flanks averaged, mean of replicates
Reading: higher = stronger binding
Construct (chain): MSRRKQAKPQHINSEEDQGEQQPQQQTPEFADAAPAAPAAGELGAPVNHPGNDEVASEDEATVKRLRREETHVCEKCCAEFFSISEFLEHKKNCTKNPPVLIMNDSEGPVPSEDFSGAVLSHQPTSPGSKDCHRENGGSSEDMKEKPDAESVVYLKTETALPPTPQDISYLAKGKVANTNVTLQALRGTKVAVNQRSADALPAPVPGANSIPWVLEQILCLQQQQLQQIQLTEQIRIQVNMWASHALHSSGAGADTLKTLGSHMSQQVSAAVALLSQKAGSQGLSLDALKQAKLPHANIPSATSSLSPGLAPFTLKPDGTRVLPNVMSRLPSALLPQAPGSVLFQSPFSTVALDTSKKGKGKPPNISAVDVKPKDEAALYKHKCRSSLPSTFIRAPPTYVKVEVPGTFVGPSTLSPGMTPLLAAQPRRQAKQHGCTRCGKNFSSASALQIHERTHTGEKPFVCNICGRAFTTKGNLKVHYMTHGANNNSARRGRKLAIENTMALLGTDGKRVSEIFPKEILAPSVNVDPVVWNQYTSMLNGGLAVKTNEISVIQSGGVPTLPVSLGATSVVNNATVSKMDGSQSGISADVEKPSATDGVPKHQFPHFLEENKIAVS
Sequence	E-score
GTCAAAGA	0.163
AGCGATGC	-0.238
CTCTGGGA	-0.27
ATGCTCGG	-0.0935
CGACTCGA	-0.159
GTTAAGGA	0.01
ACTTCCGC	-0.106
CTATAGTA	0.187
GCTGATAA	0.0858
ACACTTAA	0.221
CCGCATCG	-0.358
CGATCACC	-0.159
TCTCAACA	0.112
AGTCATTC	0.0861
CCACGTAA	-0.0346

Series 2
Target: RING finger protein unkempt homolog, zinc fingers 1-6, GST-SBP tag (UNK, Homo sapiens, UniProt Q9C0B0, residues 30-357)
Sequence of UniProt Q9C0B0 (30-357, looked up): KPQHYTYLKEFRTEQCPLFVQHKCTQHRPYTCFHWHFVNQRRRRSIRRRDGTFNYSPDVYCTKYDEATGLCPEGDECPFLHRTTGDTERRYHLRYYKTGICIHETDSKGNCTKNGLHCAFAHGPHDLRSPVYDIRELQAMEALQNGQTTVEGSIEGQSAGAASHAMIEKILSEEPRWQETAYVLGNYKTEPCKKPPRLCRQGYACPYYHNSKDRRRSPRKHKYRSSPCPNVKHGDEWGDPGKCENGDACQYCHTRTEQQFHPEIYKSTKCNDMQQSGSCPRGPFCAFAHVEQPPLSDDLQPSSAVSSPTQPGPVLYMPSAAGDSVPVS
Method: RNA Bind-n-Seq
Molecule type: RNA
Medium: in vitro
Concentration: not given
Setting: RNA with constant flanks, human and mouse sites, ends assumed
Relative to: input RNA pool
Reading: higher = stronger binding
Constant ends, left off below: GGGAGUUCUACAGUCCGACGAUC … CAACAGAGGAUUGAGCAUCA
Sequence	bound/input enrichment [ratio]
GAUUCUUAUAUCAAAGCAGAUGAUCCUUCCUCCUACAUGGAAGUUGUUCAGGCUGCCAAUACUAGUGGAAACUGGGAAGAACUGGUGAAGUACUUGCAGAUGGCCCGUAAGAAGGCUCGA	0.113
CAAAUUCUUCCUUCUUUUCUUGGCUUACUCUCUGCUGUACUGCCUUUUCAUUGCUGCUACCGAUUUACAGUAUUUUAUCAGAUUUUGGACAAAUGGUCUGCCUGAUACUCAAGCCAAGUU	0.604
CCUGUUCCAUUUCCUUUGUUCAGAGGGUUGGACAUGAGUUUAGAUAAGUAUCUUACUCUGUUCCUCCUUUCGAAGUCUCUCUCUCUCUCUCUUUCUUUCUCUCUCUCUCUGUUCCUUCUC	0.381
AAGAACUUCAAGGGUACUAUUGAAGAACUGGCUCCAAAUCAAUAUGUGAUUAGUGGUGAAGUAGCUAUUCUUAAUUCUACAACCAUUGAAAUCUCAGAGCUUCCCGUCAGAACAUGGACC	0.283
AGUUGUUUCUCCCUAACUCCCAACUCCCAACUCCCAAACUGCCUGCAUAUUUACUCUUCGUCAGUGCUAUCUUCUUGUAUGUCAUUGUGAGCAAGCUGUGAUGAAUAAAGAAUUGGAGUU	0.669
GGCAAGGUUCGGCUCCUGGCUGAUCCCACUGGGGCCUUUGGGAAGGAGACAGACUUAUUACUAGAUGAUUCGCUGGUGUCCAUCUUUGGGAAUCGACGUCUCAAGAGGUUCUCCAUGGUG	0.151
CCUGUCAUUCACAACGGAAGCCAGGGCACGGGCACCAAUGGGUCGGAAAUCAGUGAUAGCGAUUAUCAGGCAGAAUACCCCGAUGAAUAUCAUGGCGAGUACCCAGACGACUACCCUCGG	0.158

Series 3
Target: CCNB1, cyclin fold, Cln2 fusion (human)
Method: yeast growth competition, sequencing
Medium: yeast
Setting: strong parent motif
Relative to: not given
Reading: higher = stronger binding
Parent: PKN2 docking peptide (human); VSAVRKLDFSDTM
Substitution	normalised enrichment score
VAAVRKLDFSDTM [S2A]	2.76
VSAVDKLDFSDTM [R5D]	-0.0583
VSAVRKLDFSDNM [T12N]	4.3
VSASRKLDFSDTM [V4S]	0.764
VSWVRKLDFSDTM [A3W]	3.6
VSAVTKLDFSDTM [R5T]	1.56
VSAVRMLDFSDTM [K6M]	3.1
VSAFRKLDFSDTM [V4F]	1.09
VSAGRKLDFSDTM [V4G]	0.0405
VSAERKLDFSDTM [V4E]	0.374
VSAVRKLDFFDTM [S10F]	2.48
VSACRKLDFSDTM [V4C]	2.65
VIAVRKLDFSDTM [S2I]	2.64
VSAVRYLDFSDTM [K6Y]	2.04
VSAVRKLDFSFTM [D11F]	1.82
VSAVRKMDFSDTM [L7M]	0.0865
VSAVRKLCFSDTM [D8C]	2.21
VSAVRKLDFSGTM [D11G]	2.88

Series 4
Target: Phosphate system positive regulatory protein PHO4, full length, GST-tagged (PHO4, Saccharomyces cerevisiae, UniProt P07270, residues 1-312)
Method: competition protein-binding microarray
Molecule type: double-stranded DNA, one strand shown
Medium: in vitro
Concentration: 2 µM
Setting: whole 60-bp probe, lowest competitor level
Added: Cbf1 competitor, 0.05 µM
Reading: higher = stronger binding
Constant ends, left off below: … GTCTTGATTCGCTTGACGCTGCTG
Residues (chain): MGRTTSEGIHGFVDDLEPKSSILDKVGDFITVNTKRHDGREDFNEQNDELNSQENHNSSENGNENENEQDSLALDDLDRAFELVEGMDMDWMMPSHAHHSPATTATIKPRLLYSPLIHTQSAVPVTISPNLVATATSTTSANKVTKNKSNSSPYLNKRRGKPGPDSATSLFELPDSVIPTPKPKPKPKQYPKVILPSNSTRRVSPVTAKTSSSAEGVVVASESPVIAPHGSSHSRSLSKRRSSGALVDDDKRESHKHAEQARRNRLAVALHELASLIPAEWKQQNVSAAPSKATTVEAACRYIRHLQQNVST
Sequence	fluorescence intensity [a.u.]
GCCAAAGCGCAAGGCCGCGTGGACCACCAGGACGAA	8710
ACTTCTCCATTCCGTCAGCTGATACTCTATTCGGTT	4120
CATACCCAACCTTGTCACCATACTTAAGATATTTGT	4410
GAGCTACTTTTTCAACACGTGCATCCAACTTGTAGC	19000
AGAATCACCCCATCTTACGTGGCAATCACCGATGAT	4780
AAAAATTTTGAATGTCCCGTGACAAACAAAACCATT	5890
GTTGGAGATAGTGTAACCGTGACTCGATTTTTCAAG	5220
TATCTTGACTATTGCCACGTTGCGGTAGGTGGTACG	16000
GTCTTGTCTCATTGAGAGGTGGGTGTCCCCACTTCA	4520
AAATTACTAAGTTGGGACGTGGGTGACGCCGTATGA	6270
CTTCTGTAAATTTGCTAAGTGGGTGGACGCGCCCCG	4350
GATAATTGAGTGTGTTCGTCATAATTTTTAATAAGG	5530
CACAAGGCCCAATCAATGGTGGTATCGAAGTTACAT	4400
TGAACCCCAACCTCATGTGTGACGGCTCTTCTCCCG	7170
CTAACGAAGGTTTGGAAGGTGGGTGACAAGCCAAGT	4190
CGGGAAAGTTAAAGTACCGTGATGGGGACCGCCCTT	3850
AGCCGGCTATTTACCCACGTCCGGTATCTCAAAGGA	5290

Series 5
Target: Histone acetyltransferase KAT6A, winged helix 1, GST fusion (KAT6A, Homo sapiens, UniProt Q92794, residues 1-85)
Method: protein binding microarray
Molecule type: double-stranded DNA, one strand shown
Medium: in vitro
Concentration: not given
Setting: 8-mer, flanks averaged, mean of 2 arrays, mostly near background
Relative to: not given
Reading: higher = stronger binding
Target sequence (chain): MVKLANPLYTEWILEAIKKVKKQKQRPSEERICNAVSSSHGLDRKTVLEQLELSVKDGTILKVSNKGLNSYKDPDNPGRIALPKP
Sequence	E-score
CCTCACAG	-0.188
CACTTAGC	-0.0471
ACGGGCGA	0.356
ACTTCTCC	-0.0814
AAGCCTTA	-0.0115
AGCGAGCA	-0.0389
ACTAGTTC	-0.135
GACAGACA	0.0745
CATTCTCG	-0.0561
CATAGTAA	-0.169
ACAGATCG	0.00428
AAGCACAT	-0.0626
AAAGCCCC	-0.0976
AGGTCATA	-0.048

Series 6
Target: ABI1, truncated, D143A, DHFR fusion (Arabidopsis thaliana)
Method: DHFR PCA, deep sequencing
Medium: yeast
Setting: methotrexate growth selection, single substitutions
Added: (+)-ABA 710 µM
Relative to: wild-type fitted maximum
Reading: higher = stronger binding
Parent: PYL1, truncated, DHFR fusion (Arabidopsis thaliana); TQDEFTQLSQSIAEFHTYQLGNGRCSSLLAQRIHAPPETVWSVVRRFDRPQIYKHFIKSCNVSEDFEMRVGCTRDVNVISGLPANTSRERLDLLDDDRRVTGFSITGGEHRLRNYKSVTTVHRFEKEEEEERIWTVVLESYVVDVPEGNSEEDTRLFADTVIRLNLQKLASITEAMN
Substitution	relative binding score
T160R	92.6%
I105H	5.4%
E151L	98.7%
D75W	97%
I133V	111%
R99F	110%
T119W	-6.41%
L156I	102%
V100I	112%
Q19L	97.8%
A30N	97.8%
Q51I	79.8%

Series 7
Target: Ras GTPase-activating protein-binding protein 1, full length (G3BP1, Homo sapiens, UniProt Q13283)
Sequence of UniProt Q13283 (whole entry, looked up): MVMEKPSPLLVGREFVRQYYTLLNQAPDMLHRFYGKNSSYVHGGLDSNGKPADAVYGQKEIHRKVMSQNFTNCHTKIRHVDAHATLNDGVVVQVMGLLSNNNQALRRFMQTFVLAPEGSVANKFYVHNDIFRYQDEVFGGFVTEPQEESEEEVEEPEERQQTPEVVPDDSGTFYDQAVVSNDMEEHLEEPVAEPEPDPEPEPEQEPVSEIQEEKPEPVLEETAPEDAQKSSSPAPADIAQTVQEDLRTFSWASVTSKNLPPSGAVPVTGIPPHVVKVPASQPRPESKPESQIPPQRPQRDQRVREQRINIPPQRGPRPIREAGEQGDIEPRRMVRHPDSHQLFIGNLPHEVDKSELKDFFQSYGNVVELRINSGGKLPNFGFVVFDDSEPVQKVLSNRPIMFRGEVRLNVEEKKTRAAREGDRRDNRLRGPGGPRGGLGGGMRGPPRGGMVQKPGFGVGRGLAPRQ
Method: RNA Bind-n-Seq
Molecule type: RNA
Medium: in vitro
Concentration: 200 nM
Setting: whole 134-nt RNA, ends assumed
Added: 150 mM KCl
Relative to: input library
Reading: higher = stronger binding
Constant ends, left off below: GGGAGUUCUACAGUCCGACGAUC … UGGAAUUCUCGGGUGUCAAGG
Sequence	log2 enrichment
CCUGUGCUACACAUCGUAUGUACCGAAUCAAAUUUUUUUAAAUUUUUAAACCCCCCCAAAAAAGUAUUAUGUUACGCCGUUCGGAUCUGC	0.0415
UUGUGUUCGUGAAUUGUAACUCCAGAAGCAAUGCCUGUACAAGCUCCACAAUGGACGGAUUUCCUCUCCUGCCCAAUUUGCACUCAGACU	1.14
AAGUCCUGUGCUACACAUCGUAUGUACCGAAUCGGUUUGGUUUUUUUGGAAAAAGGAAAGUAUUAUGUUACGCCGUUCGGAUCUGCACUU	-1.23
UCCUCAAGUCCUGUGCUACACAUCGUAUGUACCGAAUCGGUGGAGGAAAGGAAAGUAUUAUGUUACGCCGUUCGGAUCUGCACUUCCAGC	-0.57
CACAGACAACACGCACCCACACAGACACAGAGGGAAGGGGUUGGGAUGGGGACAGGGUGCACAGCAGGGCAGGGUAGGACCCCAGCCCCU	2.01
CAAGUCCUGUGCUACACAUCGUAUGUACCGAAUCGGGGCCCGGGGCCCGGGCCCGGAAAGUAUUAUGUUACGCCGUUCGGAUCUGCACUU	-0.828
CUGUGCUACACAUCGUAUGUACCGAAUCGGUUUUUUUGGUUUUUUUGGGGUUUUUUUGGGGAAAGUAUUAUGUUACGCCGUUCGGAUCUG	-1.05
GCAGGAAGUAAAAACAAAUGGAAAUGCUUCGGAUAGUGGCAGGGGUGGGGGUUGCUAAGGAAUGGGUGGGAUGGGAGUGGGUAAAGAGUU	0.965
CACAGACAACACGCACCCACACAGACACAGAGGGAAGGGGUUGGGAUGGGGAUAGGGUGCACAGCAGGGCGGGGUAGGACCCCAGCCCCU	1.85
UGGCCCUGGUGGCAUGCGGGGAGGAAGAGGUGGCCUCAUGGAUCGUGGCGGUCCCGGUGGAAUGUUCAGAGGUGGCCGUGGUGGAGACAG	0.0987
UGGCCCUGGUGGCAUGCGGGGAGGAAGAGGUGGCCUCAUGGAUCGUGGUGGUCCCGGGGGAAUGUUCAGAGGUGGCCGUGGUGGAGACAG	0.149

For quick reference, copied from above (series 3):
Substitution	normalised enrichment score
VSAVRKLDFSDNM [T12N]	4.3
VIAVRKLDFSDTM [S2I]	2.64
VSASRKLDFSDTM [V4S]	0.764
VSAVRKLCFSDTM [D8C]	2.21
VAAVRKLDFSDTM [S2A]	2.76
VSAERKLDFSDTM [V4E]	0.374
VSAVRKLDFSGTM [D11G]	2.88
VSAVRMLDFSDTM [K6M]	3.1
VSAVRKLDFFDTM [S10F]	2.48
VSAGRKLDFSDTM [V4G]	0.0405
VSAVDKLDFSDTM [R5D]	-0.0583
VSAVRKMDFSDTM [L7M]	0.0865
VSAVRKLDFSFTM [D11F]	1.82
VSAVTKLDFSDTM [R5T]	1.56
VSWVRKLDFSDTM [A3W]	3.6
